Results collected from several papers.
Cell line: ASPC1
Observed: cell growth or viability

N#C/C(=C\c1cn(-c2ccccc2)nc1-c1cccc(Br)c1)c1nc2ccccc2[nH]1  IC50 (ATP luminescence; 72 h): 82.5 µM
COC1=C(OC)C(O)C(CC=C(C)CCC=C(C)CCC=C(C)C(=O)O)C(C)C1=O (stereo not drawn)  IC50 (MTS; 48 h): > 25 µM
CC(=O)Oc1ccc(/C=C/C(=O)Nc2nc(=O)n([C@@H]3O[C@H](C)[C@@H](OC(C)=O)[C@H]3OC(C)=O)cc2F)cc1  IC50 (MTT; 72 h): 57.1 µM
N#C/C(=C\c1cn(-c2ccccc2)nc1-c1ccc(F)cc1)c1nc2ccccc2[nH]1  IC50 (ATP luminescence; 72 h): 32.8 µM
CCCCCCCCCCCCCCOC(=O)Nc1ccn([C@@H]2O[C@H](CO)[C@@H](O)C2(F)F)c(=O)n1  IC50 (MTT; 48 h): 1.28 µM
COC(=O)[C@@H](Cc1cn(Cc2ccc(C#N)cc2)nn1)NC(=O)OCC1c2ccccc2-c2ccccc21  IC50 (MTS; 72 h): 1.73 µM
N#C/C(=C\c1cn(-c2ccccc2)nc1-c1ccc(Br)cc1)c1nc2ccccc2[nH]1  IC50 (ATP luminescence; 72 h): > 100 µM
CC(=O)O[C@@H]1[C@H](OC(C)=O)[C@@H](C)O[C@H]1n1cc(F)c(NC(=O)/C=C/c2ccc(O)c(O)c2)nc1=O  IC50 (MTT; 72 h): 133 µM
Cc1ncsc1-c1ccc(C(CO)NC(=O)C2CC(O)CN2C(=O)C(C(C)C)n2cc(-c3ccc(COc4c(-c5c(C)c(F)cc6[nH]ncc56)c(C5CC5)cc5c(N6CC7CC6CN7)nc(OC6CCOCC6)nc45)cc3)nn2)cc1 (stereo not drawn)  IC50 (ATP luminescence; 6 days): 0.019 µM
Cc1ccc(-c2nn(-c3ccccc3)cc2/C=C(\C#N)c2nc3ccccc3[nH]2)cc1  IC50 (ATP luminescence; 72 h): > 100 µM
CC1(N)CCN(c2nc(N(Cc3ccccc3)Cc3ccccc3)nc3c2ncn3Cc2ccccc2)CC1  IC50 (WST-1; 72 h): 6.3 µM
COc1ccc2c(c1)C(=C1Nc3ccccc3C1=NOCC(O)CO)C(=O)N2 (stereo not drawn)  IC50 (MTS; 48 h): 1.3 µM
Cc1nc(-c2ccc(Cl)cc2)nc(N2CCC(C)(N)CC2)c1Cc1ccccc1  IC50 (WST-1; 72 h): 5.8 µM
COC(=O)[C@@H](Cc1cn(Cc2ccc(C)cc2)nn1)NC(=O)OCC1c2ccccc2-c2ccccc21  IC50 (MTS; 72 h): > 100 µM
CC(=O)Oc1cccc(/C=C/C(=O)Nc2nc(=O)n([C@@H]3O[C@H](C)[C@@H](OC(C)=O)[C@H]3OC(C)=O)cc2F)c1  IC50 (MTT; 72 h): 37 µM
